Literature values, collected from citations in different studies.
Numbers after ± are the reported error. Ends that are not written are not given here.

COc1cc(OC)cc(N(CCNC(C)C)c2ccc3ncc(-c4cnn(C)c4)nc3c2)c1 — objective response rate (human metastatic urothelial carcinoma; dose not given, phase II FGFR3 mutation or FGFR2/3 fusion): 40%
CC[C@@]1(O)C(=O)OCc2c1cc1n(c2=O)Cc2cc3c(CN(C)C)c(O)ccc3nc2-1 — 2-year overall survival (patients with etoposide/carboplatin-refractory pulmonary carcinoid; dose not given): < 20%
CS(=O)(=O)CCNCc1ccc(-c2ccc3ncnc(Nc4ccc(OCc5cccc(F)c5)c(Cl)c4)c3c2)o1 — CNS progression rate (HER2-positive breast cancer patients; dose not given, with: capecitabine; reference: trastuzumab and capecitabine): no effect
CC(C)(C)OC[C@@H]1C(=O)NCCN1C(=O)C[C@H](N)Cc1cc(F)c(F)cc1F — HbA1c reduction (type 2 diabetes patients; oral, 5 mg once daily, 12 weeks; reference: placebo): 0.57%
semaglutide — body weight change (type 2 diabetes patients; 1.0 mg, 40 weeks; reference: baseline): -5.7 kg
COc1ccc2c(O[C@@H]3C[C@H]4C(=O)N[C@]5(C(=O)NS(=O)(=O)C6CC6)C[C@H]5/C=C\CCCCN(C)C(=O)[C@@H]4C3)cc(-c3nc(C(C)C)cs3)nc2c1C — SVR rate (HCV genotype 1 prior relapsers; concentration not given, with: peginterferon and ribavirin): 79.2%
CCC1(C)CC(=O)NC1=O (stereo not drawn) — ED50 (protection from seizures; CF-1 mice, 6 Hz corneal stimulation; ip, with: 22 mA): 86.9 mg/kg
C[C@]12CC[C@@H]3c4cc(C56CC7CC(CC(C7)C5)C6)c(O)cc4CC[C@H]3[C@@H]1CCC2=O — IC50 (lipid peroxidation, TBARS; rat brain homogenate; with: 50 µM ferric ions): 1.13 µM
CC(=O)O[C@H]1Cc2ccccc2N(C(N)=O)c2ccccc21 — seizure and afterdischarge duration (kindled mice; ip, 100, 200, 300 mg/kg): no effect
O=C1NC(=O)[C@@H](c2cn3c4c(cccc24)CCC3)[C@@H]1c1c[nH]c2ccccc12 — time to progression (human, hepatocellular carcinoma, high c-Met; concentration not given): 2.7 months
CN1CCN(CCOc2cc(OC3CCOCC3)c3c(Nc4c(Cl)ccc5c4OCO5)ncnc3c2)CC1 — response rate (human platinum-sensitive ovarian cancer; dose not given, with: paclitaxel and carboplatin): 53.4%
bevacizumab — median overall survival (human, advanced non-squamous NSCLC; dose not given, phase III, with: paclitaxel and carboplatin; reference: chemotherapy alone): 12.3 months
glutathione — EC50 (hydroxyl radical scavenging): 1230 ± 312 µM
C[C@@H](NCCCc1cccc(C(F)(F)F)c1)c1cccc2ccccc12 — time to iPTH return to baseline (human primary hyperparathyroidism; oral, dose not given, normal renal function): ≤ 12 h
insulin — second-order rate constant (disulfide reduction; pH neutral, with: dithiothreitol): 5 M⁻¹ s⁻¹
Cc1c(O)c(C23CC4CC(CC(C4)C2)C3)cc2c1CC[C@@H]1[C@@H]2CC[C@]2(C)C(=O)CC[C@@H]12 — IC50 (lipid peroxidation, TBARS; rat brain homogenate; with: 50 µM ferric ions): 0.708 µM
O=c1c(O)c(-c2ccc(O)c(O)c2)oc2cc(O)ccc12 — IC50 (superoxide radical scavenging; with: xanthine/xanthine oxidase): 3 to 5 µM
COc1cc2nccc(Oc3ccc(NC(=O)C4(C(=O)Nc5ccc(F)cc5)CC4)cc3)c2cc1OC — response rate (human EGFR-mutant NSCLC patients; 40 mg daily, progressed on EGFR TKI, with: erlotinib): 11%
O=C(CCC/C=C\C[C@@H]1[C@@H](CC[C@@H](O)CCc2ccccc2)[C@H](O)C[C@@H]1O)OCCCCO[N+](=O)[O-] — IOP (patients with OHT or POAG; topical ocular, 0.024%, 3 months, all post-baseline visits): 17.8 to 18.7 mmHg
CN(C)c1ccc2nc3ccc(=[N+](C)C)cc-3sc2c1 — effective concentration (PHF core disruption; purified AD brain PHFs): 0.16 µmol/L
C[C@]12CC[C@@H]3c4ccc(O)cc4CC[C@H]3[C@@H]1CC[C@H]2O — ischemic lesion curve AUC (rat transient MCA occlusion; dose not given, 24 h pretreatment): 3.7 ± 1.3%
CCCc1nn(C)c2c(=O)[nH]c(-c3cc(S(=O)(=O)N4CCN(C)CC4)ccc3OCC)nc12 — blood pressure reduction (ambulatory blood pressure monitoring, refers to: SBP; healthy and hypertensive humans; 100 mg, evening dosing): -5.8 mmHg
CN(C)/N=N/c1[nH]cnc1C(N)=O — response rate (human, metastatic melanoma; dose not given): 7 to 12%
ferroquine — curative dose (mouse malaria model; oral, single dose): 30 mg/kg
CONC(=N)c1ccc(-c2ccc(-c3ccc(C(=N)NOC)cc3)o2)cc1 — cure rate (human, first-stage African trypanosomiasis; po, dose not given): 95%
CC(C)[C@H]1c2ccc(F)cc2CC[C@@]1(CCN(C)CCCc1nc2ccccc2[nH]1)OC(=O)C1CC1.Cl.Cl — tremor reduction (C57BL/6 wild-type mouse; 12.5 mg/kg, after 20 min harmaline-alone epoch, with: harmaline): ~60%
Ac-ELDWDADDIRLQIDNPD-NH2 (N-acetyl, C-amide) — ICAM-1 protein level (western blot; peptide, Tsk/+ mouse, myocardium; subcutaneous, 1 mg/kg/day, 21 days): decreased
C[C@]1(C(=O)[O-])CSC(c2ccc(O)cc2O)=N1.[Na+] — iron clearing efficiency (bile duct-cannulated rats, non iron-overloaded; oral, 300 µmol/kg, 24 h, monosodium salt): 1.1 ± 0.8%
C[C@]1(c2nc3c(C(N)=O)cccc3[nH]2)CCCN1 — pathological complete response rate (human, TNBC; 50 mg twice daily, then AC, with: paclitaxel, carboplatin AUC 6): 53%
Cc1ccc(C(=O)N(CCCN)[C@@H](c2nc3cc(Cl)ccc3c(=O)n2Cc2ccccc2)C(C)C)cc1 — partial response rate (human, platinum/taxane refractory ovarian cancer; 18 mg/m2 every 21 days): 5%
semaglutide — placebo-subtracted weight reduction (human adults overweight or obese non-diabetic; 2.4 mg, 2 years): 13%
CCCC(CCC)C(=O)O — ED50 (protection from seizures; CF-1 mice, 6 Hz corneal stimulation; ip, with: 22 mA): 41.5 mg/kg
CO[C@H]1C[C@@H]2CC[C@@H](C)[C@@](O)(O2)C(=O)C(=O)N2CCCC[C@H]2C(=O)O[C@H]([C@H](C)C[C@@H]2CC[C@@H](O)[C@H](OC)C2)CC(=O)[C@H](C)/C=C(\C)[C@@H](O)[C@@H](OC)C(=O)[C@H](C)C[C@H](C)/C=C/C=C/C=C/1C — blood concentration, maximal antiangiogenic effect (tumour-bearing mice, blood; steady state): 15 ± 1 ng/mL
O=C1NC(=O)C(c2ccccc2)(c2ccccc2)N1 — ED50 (protection from seizures; CF-1 mice, 6 Hz corneal stimulation; ip, with: 22 mA): 9.4 mg/kg
C[C@]12CC[C@@H]3c4ccc(O)cc4CC[C@H]3[C@@H]1CCC2=O — IC50 (lipid peroxidation, refers to: malondialdehyde; rat brain homogenate): 80.8 µM
O=C(O)/C=C/c1ccc(O)c(O)c1 — IC50 (superoxide scavenging, PMS-NADH system): 51 µM
C[C@]12CC[C@@H]3c4ccc(O)cc4CC[C@H]3[C@@H]1CC1(CCCC1)C2=O — IC50 (lipid peroxidation, TBARS; rat brain homogenate; with: 50 µM ferric ions): 16.1 µM
KCNTATCATQRLANFLVHSSNNFGPILPPTNVGSNTY (Pramlintide; not fully specified (C-terminus, bridges); cysteine pairing not given here; sequence looked up) — body weight loss (peptide, obese humans; 360 µg twice daily, 6 months, with lifestyle intervention; reference: placebo): 5 to 6%
CC(=O)O[C@H]1C(=O)[C@@]2(C)[C@H]([C@H](OC(=O)c3ccccc3)[C@]3(O)C[C@H](OC(=O)[C@H](O)[C@@H](NC(=O)c4ccccc4)c4ccccc4)C(C)=C1C3(C)C)[C@]1(OC(C)=O)CO[C@@H]1C[C@@H]2O — brain metastases with cytotoxicity (mouse brain metastasis model; dose not given, highest drug concentration subset): 10%
CCCNC(=N)NCCC[C@H](N)C(=O)O — IC50 (eNOS-dependent vasodilation; bovine ciliary artery; with: bradykinin): ~10 µM
Nc1nc(Cl)nc2c1ncn2[C@H]1C[C@H](O)[C@@H](CO)O1 — complete remission rate (paediatric AML patients; dose not given, before induction therapy): 27%
CC1(C)CCC(CN2CCN(c3ccc(C(=O)NS(=O)(=O)c4ccc(NCC5CCOCC5)c([N+](=O)[O-])c4)c(Oc4cnc5[nH]ccc5c4)c3)CC2)=C(c2ccc(Cl)cc2)C1 — response rate (relapsed/refractory AML patients; 800 mg initial, monotherapy): 19%
CC(C)(O)CNc1nc(Nc2ccnc(C(F)(F)F)c2)nc(-c2cccc(C(F)(F)F)n2)n1 — median 2-HG reduction (refers to: 2-hydroxyglutarate; human advanced haematological malignancy; 50 to 650 mg/day): > 90%
CC(C)Cc1ccc(C(C)C(=O)O)cc1 (stereo not drawn) — breast cancer risk reduction (postmenopausal women; dose not given, long-term regular use): 49%
C[C@@]12CC=C3c4ccc(O)cc4CC[C@@H]3[C@H]1CC[C@H]2O — IC50 (lipid peroxidation, TBARS; rat brain homogenate; with: 50 µM ferric ions): 3.13 µM
NC(=O)N1c2ccccc2C=Cc2ccccc21 — ED50 (psychomotor seizure protection; mice; 6 Hz 44 mA 3 s stimulation): 9.5 mg/kg
CC[C@H]1OC(=O)[C@H](C)[C@@H](O[C@H]2C[C@@](C)(OC)[C@@H](O)[C@H](C)O2)[C@H](C)[C@@H](O[C@@H]2O[C@H](C)C[C@H](N(C)C)[C@H]2O)[C@](C)(O)C[C@@H](C)C(=O)[C@H](C)[C@@H](O)[C@]1(C)O — gastric retention (diabetic gastroparesis patients; intravenous, dose not given, 60 min): 21%
CC(C)(O)c1cc2nn(CCS(C)(=O)=O)cc2cc1NC(=O)c1cccc(C(F)(F)F)n1 — inhibition (TNF-alpha release; healthy male human, whole blood; up to 240 mg daily, 10 days, with: LPS 0.1 ng/mL for 6 h): 50%
C[C@]12CC[C@@H]3c4cc(C56CC7CC(CC(C7)C5)C6)c(O)cc4CC[C@H]3[C@@H]1CC[C@@H]2O — IC50 (lipid peroxidation, TBARS; rat brain homogenate; with: 50 µM ferric ions): 1.39 µM
CN1CCC(c2ccccc2CC(C)(C)Nc2nc(N3CCOCC3)nc(-n3c(C(F)F)nc4ccccc43)n2)CC1 — EC50 (basophil activation, inhibitor; healthy human volunteers, peripheral blood): 0.001 µM
Neurokinin A — EC50 (bladder contraction, agonist; human bladder strips): ~0.04 µM
NC(=O)N1c2ccccc2C[C@H](O)c2ccccc21 — ED50 (psychomotor seizure protection; mice; 6 Hz 44 mA 3 s stimulation): 12.1 mg/kg
CC(=O)O[C@H]1CC[C@@]2(C)C(=CC[C@@H]3[C@@H]2CC[C@]2(C)C(c4cccnc4)=CC[C@@H]32)C1 — overall survival gain (human mCRPC, pre-chemotherapy; dose not given, with: prednisone; reference: prednisone alone): 4.4 months
NS(=O)(=O)NCCNc1nonc1C(=NO)Nc1ccc(F)c(Br)c1 — overall survival hazard ratio (melanoma patients; dose not given, with: pembrolizumab; reference: pembrolizumab alone): 1.13
